Published values gathered from unrelated publications.
Compare with care: the assays were run in different laboratories. ± gives the spread as reported.

CO[C@@H]1[C@@H](OC(N)=O)[C@@H](O)[C@H](Oc2ccc3c(O)c(NC(=O)c4ccc(O)c(CC=C(C)C)c4)c(=O)oc3c2C)OC1(C)C  amount permeated (starch gel membrane permeability; Gram-negative envelope surrogate; 200 µM, 10 min, pH 7.4): 0.49 nmol
C=CC[C@@H]1/C=C(\C)C[C@H](C)C[C@H](OC)[C@H]2O[C@@](O)(C(=O)C(=O)N3CCCC[C@H]3C(=O)O[C@H](/C(C)=C/[C@@H]3CC[C@@H](O)[C@H](OC)C3)[C@H](C)[C@@H](O)CC1=O)[C@H](C)C[C@@H]2OC  plasma total Ca2+ (Wistar Kyoto rat, male, plasma; ip, 0.5 mg/kg/day, day 28, at sacrifice): 2.7 ± 0.04 mmol/L
CCO  number of treatment-related AEs (human; concentration not given): 41
N#Cc1ccc2c(c1)[C@H]1CCCN(C(=O)c3ccc4[nH]cnc4c3)[C@H]1C2  total testosterone level (human males; 10 mg, day 15): 12.8 nmol/L
CCCCOc1nc(N)c2c(n1)N(Cc1cccc(CN3CCCC3)c1)CC(=O)N2  drug-related TEAE incidence (measured: Photopsia; human; oral, 2 mg): 0%
C=CC(=O)N1CCC(c2ccc(C(N)=O)c(-c3ccc(Oc4ccccc4)cc3)n2)CC1  incidence of serious cryptococcal meningitis (CTCAE 4.03; patients with relapsed/refractory MCL; oral, dose not given): 0.9%
OC[C@H]1O[C@@H](c2ccc(Cl)c(Cc3ccc(O[C@H]4CCOC4)cc3)c2)[C@H](O)[C@@H](O)[C@@H]1O  change in Phosphate (Japanese type 1 diabetes patients, blood; 2.5 mg, day 28; relative to: baseline): 0 mg/dL
C[C@@H]1CCO[C@H]2Cn3cc(C(=O)NCc4ccc(F)cc4F)c(=O)c(O)c3C(=O)N12  trough concentration (C24) (human paediatric patients, weight sample E to under sample F kg, plasma; oral, 25 mg film-coated tablet, 24 h, steady state, geometric mean, population PK post-hoc, N 1): 413 ng/mL
O=C1CC[C@H](N2Cc3cc(N4CCN(CC5CCN(c6ccc([C@@H]7c8ccc(O)cc8CC[C@@H]7c7ccccc7)cc6)CC5)CC4)ccc3C2=O)C(=O)N1  participants with adverse event (measured: Wound; human; oral, 200 mg, together with: dabigatran etexilate 75 mg): 4.2%
CCn1cc(C(=O)N2CCOCC2)c(=O)c2cc(NC3Cc4ccccc4C3)cnc21  AUC(0-last) (human, fed; oral suspension, 2000 mg single dose, arithmetic mean): 49000 ng·h/mL
Cc1nc(-c2cnc(NC(C)C)n(C)c2=O)ccc1Oc1ccnc(-c2cnn(C)c2)c1  oral bioavailability (Beagle dog, male, plasma; oral, 3 mg/kg, crossover study, mean): 33.3%
COc1ccc2[nH]c([S+]([O-])Cc3ncc(C)c(OC)c3C)nc2c1 (stereo not shown)  R/S ratio change (human male, plasma and dried plasma spots; oral, dose not given, 4 h; relative to: rifampicin-induced over baseline): 1.14
CCOc1c([C@H](C)n2nc(C)c3c(N)ncnc32)cc(Cl)c(F)c1[C@@H]1CNC(=O)C1  half-life (patients with indolent lymphoma, plasma; oral, 30 mg, day 15, monotherapy): 11.7 ± 5 h
O=C(O)CC(O)(CC(=O)O)C(=O)O  ALT level (ELISA; Wistar rat; 175 and 1000 mg/kg, two and four weeks): increased
CC(C)(C(=O)N1CCOc2c(C#N)cncc2C1)C(F)F  subjects with TEAE (measured: eye disorders; healthy humans, both sexes; oral, 10 mg single dose): 0%
CCc1nc(C(N)=O)c(Nc2ccc(N3CCC(N4CCN(C)CC4)CC3)c(OC)c2)nc1NC1CCOCC1  accumulation ratio (AUC) (Japanese patients, plasma; oral, 80 mg, cycle 1 day 28, multiple doses, median; relative to: single dose): 4.68
C[C@@H](O)[C@H]1C(=O)N2C(C(=O)O)=C(SCCN=CN)C[C@H]12  amount permeated (starch gel membrane permeability; Gram-negative envelope surrogate; 200 µM, 10 min, pH 7.4): 0.87 nmol
O=C(O)CCC(=O)O.[2H]C([2H])([2H])Oc1cc(C)c2[nH]ccc2c1CN1CC[C@@H](C2CC2)C[C@H]1c1ccc(C(=O)O)cc1  subjects with lymphopenia (multiple ascending dose; healthy Chinese subjects; 100 mg twice daily): 0%
O=C(CCCCCCC(=O)Nc1ccc(CC[18F])cc1)NO  tissue uptake (athymic nu/nu male mice, LNCaP xenograft, small intestine; intravenous, 2 h): 12.8 ± 3.9 %ID/g
NC1(C(=O)N[C@@H](CCO)c2ccc(Cl)cc2)CCN(c2nc[nH]c3nccc2-3)CC1  incidence of Anaemia (metastatic CRPC patients; 400 mg b.i.d., grade 3 to 4, treatment-related, together with: enzalutamide 160 mg daily): 0%
O=C(N[C@H](CO)[C@H](O)c1ccc([N+](=O)[O-])cc1)C(Cl)Cl  amount permeated (starch gel membrane permeability; Gram-negative envelope surrogate; 200 µM, 60 min, pH 7.4): 4.28 nmol
O=C(O)/C=C/c1ccc(OS(=O)(=O)O)cc1  plasma concentration (human plasma; mean): 143 nM
Cc1cc(C)c(CNC(=O)c2cc(Cl)c3c(c2C)O[C@@](C)([C@H]2CC[C@H](N(C)C)CC2)O3)c(=O)[nH]1  GGT increased grade ≥3 (human relapsed/refractory NHL; oral, 200 mg once daily, onset after cycle 1 day 1): 4.2%
O=c1c(O)c(-c2cc(O)c(O)c(O)c2)oc2cc(O)cc(O)c12  plasma concentration (human plasma; median, both sexes): 576 nM
CNC(=O)c1cccc(-c2ccc([C@@H](O)[C@H]3O[C@H](CO)[C@@H](O)[C@H](O)[C@@H]3O)c(C)c2)c1  AUC(0-all) (male Sprague-Dawley rat, plasma; intravenous, 3 mg/kg, group mean): 1440 ng·h/mL
CCn1cc(C(=O)O)c(=O)c2cnc(N3CCNCC3)nc21  amount permeated (starch gel membrane permeability; Gram-negative envelope surrogate; 200 µM, 30 min, pH 7.4): 2.06 nmol
Cc1c2oc3c(C)ccc(C(=O)N[C@@H]4C(=O)N[C@H](C(C)C)C(=O)N5CCC[C@H]5C(=O)N(C)CC(=O)N(C)[C@@H](C(C)C)C(=O)O[C@@H]4C)c3nc-2c(C(=O)N[C@@H]2C(=O)N[C@H](C(C)C)C(=O)N3CCC[C@H]3C(=O)N(C)CC(=O)N(C)[C@@H](C(C)C)C(=O)O[C@@H]2C)c(N)c1=O  V3 (population PK model; human): 334 L/70 kg
COc1ccc2c(=O)n(C)c(-c3ccccc3)nc2c1  tissue/plasma ratio (Sprague-Dawley rat, male, large intestine; oral, 30 mg/kg, 4 h; relative to: large intestine over plasma): 7630
CSc1ccccc1C(=O)NCCn1cc(C(=O)NCc2cccc(C)n2)c(=O)c2cc3c(cc21)OC(F)(F)O3  Tmax (Sprague-Dawley rat, male, plasma; intramuscular, 30 mg/kg of parent drug): 16.2 ± 7.85 h
O=C(Nc1nc2cccc(-c3ccc(CN4CCS(=O)(=O)CC4)cc3)n2n1)C1CC1  treatment-emergent adverse events (measured: lipase increased; human rheumatoid arthritis patients; oral, 300 mg once daily, 4 weeks, regardless of relatedness): 0%
Cn1cc(Nc2nccc(-c3ccc4c(c3)CN(C3COC3)CC[C@H]4NC(=O)c3cn(C(C)(C)C)nn3)n2)cn1  NK cell count change (human, whole blood; 300 mg twice daily, day 7; relative to: pre-dose baseline): 9.32%
O=c1ccc2ccc(O)c(O)c2o1  plasma concentration (human plasma; mean, both sexes): 91 nM
CNCc1ccc(-c2[nH]c3cc(F)cc4c3c2CCNC4=O)cc1  incidence of AST/ALT increase (human patients; oral, 600 mg twice daily, grade 3): 11.5%
CC(C)(C)c1ccc(O)c(CN(Cc2cc(C(C)(C)C)ccc2O)C2CCC(NC(N)=O)CC2)c1 (stereo not shown)  elimination rate constant (C57BL/6 mouse, male, plasma; oral, 10 mg/kg): 6.94e-05 s⁻¹
O=C1CCc2ccc(OCCCCN3CCN(c4cccc(Cl)c4Cl)CC3)cc2N1  adverse event incidence (measured: Hypotension; genotyped patients, CYP2D6 normal metabolizers; dose not given, long-acting oral or depot): 4.2%
COc1cc(CCC(=O)O)ccc1O[C@@H]1O[C@H](C(=O)O)[C@@H](O)[C@H](O)[C@H]1O  plasma concentration (human plasma; mean): 619 nM
C[C@@H](N)C1CCN(S(=O)(=O)c2cccc3cnccc23)CC1  TEAE incidence (measured: Rash; healthy volunteers; 150 mg, fasted): 0%
Cc1nc2cccc(OCC(C)(C)C(=O)NC(C)C)c2c(N)c1C(=O)O  AUC(0-last) ratio (Sprague-Dawley rat, plasma; oral, 100 mg/kg, day 1; relative to: female over male): 1.94 ± 0.93
Cc1c(C(=O)O)ccc2c3n(nc12)[C@@H]1[C@H](C3)N(CC2CC2)[C@@]2(C(=O)Nc3cc(Cl)ccc32)[C@H]1c1cccc(Cl)c1F  adverse event incidence (phase Ia trial, measured: Constipation; cancer patients; oral, dose not given, all patients grade ≥3): 0%
Cn1c(=O)[nH]c2nc[nH]c2c1=O  samples above LOQ (human, both sexes, cerebrospinal fluid): 0%
Nc1ncnc2c1ncn2[C@H]1C[C@@H]2OP(=O)(O)OC[C@H]3O[C@@H](n4cnc5c(N)ncnc54)C[C@@H]3OP(=O)(O)OC[C@H]2O1  haemoglobin (non-tumor-bearing mice, blood; intravenous, 1 mg/kg, toxicity study): 149 ± 7.5 g/L
FC(F)(F)c1ccc(CNc2ccc(Cc3c[nH]c4ncc(Cl)cc34)cn2)cn1  adverse event incidence (measured: Hypophosphataemia; patients with advanced solid tumours; oral, dose not given, grade 1 and 2, possibly related to drug): 6%
CNC(=O)c1cc(Oc2ccc(NC(=O)Nc3cc(C(C)(C)C)nn3-c3ccc4ncccc4c3)c(F)c2)ccn1  patients with nervous system disorder AE (measured: worst grade 2; human; oral, dose not given, cycles 1 and 2, High Cmax subgroup): 28%
O=C(COc1ccc(Cl)cc1)NC12CC(c3nnc([C@H]4C[C@@H](OC(F)(F)F)C4)o3)(C1)C2  drug-related TEAE participants (human both sexes; oral, 145 mg once daily, 14 days): 100%
O=S(=O)(O)Oc1ccc(CCO)cc1  plasma concentration (human plasma; mean): 202 nM
CCN1/C(=C/C(C)=O)Sc2ccc(F)cc21  mean blood pressure (cynomolgus monkey; oral, 100 mg/kg, 24 h post-dose): 86 ± 7 mmHg
CCc1cc(C(=O)NC)c2nccc(N3CCc4c(cc(Cn5ccnc5)cc4-c4cn(C)nc4C(F)(F)F)C3=O)c2c1  change in clinical chemistry or haematology parameter (measured: DBIL; Sprague Dawley rat; oral, 100 mg/kg once daily, 7 days; relative to: vehicle): -18.8%
CCn1cc(C(=O)O)c(=O)c2ccc(C)nc21  amount permeated (starch gel membrane permeability; Gram-negative envelope surrogate; 200 µM, 60 min, pH 7.4): 4.37 nmol
O=C(/C=C/c1ccc(O)c(O)c1)O[C@H]1[C@H](O)C[C@](O)(C(=O)O)C[C@H]1O  plasma concentration (human plasma; mean): 177 nM
CC[C@H](C)[C@H](NC(=O)[C@H](Cc1ccccc1)NC(=O)[C@H](CCC(=O)O)NC(=O)[C@H](CCCCNC(=O)COCCOCCNC(=O)COCCOCCNC(=O)CC[C@H](NC(=O)CCCCCCCCCCCCCCCCC(=O)O)C(=O)O)NC(=O)[C@H](C)NC(=O)[C@H](C)NC(=O)[C@H](CCC(N)=O)NC(=O)CNC(=O)[C@H](CCC(=O)O)NC(=O)[C@H](CC(C)C)NC(=O)[C@H](Cc1ccc(O)cc1)NC(=O)[C@H](CO)NC(=O)[C@H](CO)NC(=O)[C@@H](NC(=O)[C@H](CC(=O)O)NC(=O)[C@H](CO)NC(=O)[C@@H](NC(=O)[C@H](Cc1ccccc1)NC(=O)[C@@H](NC(=O)CNC(=O)[C@H](CCC(=O)O)NC(=O)C(C)(C)NC(=O)[C@@H](N)Cc1cnc[nH]1)[C@@H](C)O)[C@@H](C)O)C(C)C)C(=O)N[C@@H](C)C(=O)N[C@@H](Cc1c[nH]c2ccccc12)C(=O)N[C@@H](CC(C)C)C(=O)N[C@H](C(=O)N[C@@H](CCCNC(=N)N)C(=O)NCC(=O)N[C@@H](CCCNC(=N)N)C(=O)NCC(=O)O)C(C)C  systolic blood pressure change (hypoglycaemic clamp; type 2 diabetes patients; dose not given, from glucose nadir to recovery): -9.4 mmHg
CN(C(=O)n1cnc(-c2ccc[n+]([O-])c2)c1)[C@H]1CC[C@H](O)CC1  tissue concentration (rat, cortex; oral, 10 mg/kg daily for 5 days, 4 h): 8.8 ± 0.6 ng/g
O=C1CCC(N2Cc3cc(CO)c(F)cc3C2=O)C(=O)N1 (stereo not shown)  plasma concentration (cynomolgus monkey, male; oral, 0.3 mg/kg parent drug, 6 h): 0.25 ± 0.22 ng/mL
OCc1nc2ccc(NCc3ccc(C(F)(F)F)cc3)cc2[nH]1  tissue/plasma ratio (male Balb/c mice, brain; oral, 10 mg/kg, 6 h; relative to: tissue over plasma): 5.6 ± 0.33
CCCCOC(=O)N1CCN(C(=O)[C@H](CP(=O)(O)O)NC(=O)c2cc(N3CC[C@H](OC)C3)nc(-c3ccccc3)n2)CC1  change in QT interval (human; subcutaneous, 16 mg, 24 h post-dose; relative to: baseline): -3.5 ± 15.8 ms
Cc1ccc([C@@H]2O[C@H](CO)[C@@H](O)[C@H](O)[C@H]2O)cc1Cc1ccc(-c2ccc(F)cc2)s1  urinary sodium excretion change (Japanese type 2 diabetes patients; 100 mg, day 16, 24 h urine collection; relative to: baseline): -24.7 mEq
COc1cc(C(=O)O)ccc1OS(=O)(=O)O  plasma concentration (human plasma; median): 379 nM
CCCCC[C@H](O)CC[C@@H]1[C@H]2Cc3cccc(OCC(=O)O)c3C[C@H]2C[C@H]1O  geometric mean AUC(0-last) (LC-MS/MS; Japanese PAH patients aged ≥sample A years, plasma; inhaled, 54 µg): 1.08 ng·h/mL
Cc1noc(C)c1-c1cc(C(O)(c2ccccn2)c2ccccn2)c2nc(C3CC3)[nH]c2c1  Ctau (human patients, plasma; oral, 6 mg, cycle 1 day 8, monotherapy, 24 h): 237 ng/mL

For quick reference, copied from above:
O=C(CCCCCCC(=O)Nc1ccc(CC[18F])cc1)NO  tissue uptake (athymic nu/nu male mice, LNCaP xenograft, small intestine; intravenous, 2 h): 12.8 ± 3.9 %ID/g
NC1(C(=O)N[C@@H](CCO)c2ccc(Cl)cc2)CCN(c2nc[nH]c3nccc2-3)CC1  incidence of Anaemia (metastatic CRPC patients; 400 mg b.i.d., grade 3 to 4, treatment-related, together with: enzalutamide 160 mg daily): 0%
O=C(N[C@H](CO)[C@H](O)c1ccc([N+](=O)[O-])cc1)C(Cl)Cl  amount permeated (starch gel membrane permeability; Gram-negative envelope surrogate; 200 µM, 60 min, pH 7.4): 4.28 nmol
O=C(O)/C=C/c1ccc(OS(=O)(=O)O)cc1  plasma concentration (human plasma; mean): 143 nM
Cc1cc(C)c(CNC(=O)c2cc(Cl)c3c(c2C)O[C@@](C)([C@H]2CC[C@H](N(C)C)CC2)O3)c(=O)[nH]1  GGT increased grade ≥3 (human relapsed/refractory NHL; oral, 200 mg once daily, onset after cycle 1 day 1): 4.2%
